Assay results from different studies.
Numbered parts are unrelated; each lists some results of a single study.

Set 1
Target: Sal-like protein 4, full length isoform B (SALL4, Homo sapiens, UniProt Q9UJQ4-2, residues 1-616)
Technique: universal PBM
Molecule type: double-stranded DNA, one strand shown
Medium: in vitro
Concentration: not given
Notes: 8-mer, flanks averaged, mean of replicates
Reading: higher = stronger binding
Construct (chain): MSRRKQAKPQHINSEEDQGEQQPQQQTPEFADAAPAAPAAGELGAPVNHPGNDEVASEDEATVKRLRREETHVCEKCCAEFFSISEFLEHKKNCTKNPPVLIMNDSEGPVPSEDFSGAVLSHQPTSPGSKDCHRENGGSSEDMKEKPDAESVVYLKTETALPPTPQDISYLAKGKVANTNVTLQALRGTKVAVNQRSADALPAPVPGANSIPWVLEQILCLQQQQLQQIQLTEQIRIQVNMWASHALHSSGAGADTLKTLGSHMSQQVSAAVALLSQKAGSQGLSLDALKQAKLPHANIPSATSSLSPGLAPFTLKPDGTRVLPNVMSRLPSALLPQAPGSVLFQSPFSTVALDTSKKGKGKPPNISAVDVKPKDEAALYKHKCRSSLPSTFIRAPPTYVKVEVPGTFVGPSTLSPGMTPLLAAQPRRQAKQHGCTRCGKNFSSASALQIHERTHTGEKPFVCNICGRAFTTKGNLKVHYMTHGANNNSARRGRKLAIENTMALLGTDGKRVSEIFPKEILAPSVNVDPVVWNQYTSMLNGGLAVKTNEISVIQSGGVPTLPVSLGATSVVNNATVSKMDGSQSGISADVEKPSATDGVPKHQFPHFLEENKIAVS
Strand	E-score
CCCCGCGC	-0.318
CCAAAGAA	0.0414
AGTATGGA	0.249
CCCACAGC	-0.142
AAGAGAGA	0.0207
AAGTATGA	0.258

Set 2
Target: Fragile X messenger ribonucleoprotein 1, C-terminal low-complexity region (Fmr1, Mus musculus, UniProt P35922)
Technique: RNA Bind-n-Seq
Molecule type: RNA
Medium: in vitro
Concentration: 200 nM
Notes: whole 134-nt RNA, ends assumed
Added: 150 mM KCl
Relative to: input library
Reading: higher = stronger binding
Constant ends, left off below: GGGAGUUCUACAGUCCGACGAUC … UGGAAUUCUCGGGUGUCAAGG
Strand	log2 enrichment
AAGUCCUGUGCUACACAUCGUAUGUACCGAAUCGGCCCCGGGGCCCCGGGCCCCGGAAAGUAUUAUGUUACGCCGUUCGGAUCUGCACUU	-1.05
UCCUGUGCUACACAUCGUAUGUACCGAAUCGGGGAAAAAGGGGAAAAAAAGGGGUGGGGAAAGUAUUAUGUUACGCCGUUCGGAUCUGCA	0.656
UUGGCGCAUGCGCCUAAAGCUGACGGGUUUGAAAUGGCUUCGAUGUUAGCCGGGACCCGACUCAGGUGAAGGUCUGGUCCCCGUAGUUGG	-0.871
GUCCUGUGCUACACAUCGUAUGUACCGAAUCGGAAAAAGGAAAAAAAGGAAAAAAAGGAAAGUAUUAUGUUACGCCGUUCGGAUCUGCAC	-0.741
UGGGAGGUGGAUUUUGUUUAUUUUUUUAGCUCAUUUCCAGGGGUGGGAAUUUCUUUUUAAUAUGUGUCAUGAAUAAAGUUGUUUUUGAAA	0.27
CACAGACAACACGCACCCACACAGACACAGAGGGAAGGGGUUGGGAUGGGGACAGGGUGCACAGCAGGGCGGAAAAGGACCCCAGCCCCU	1.11

Set 3
Target: RING finger protein unkempt homolog, zinc fingers 1-6, GST-SBP tag (UNK, Homo sapiens, UniProt Q9C0B0, residues 30-357)
UniProt Q9C0B0, sequence (30-357, looked up): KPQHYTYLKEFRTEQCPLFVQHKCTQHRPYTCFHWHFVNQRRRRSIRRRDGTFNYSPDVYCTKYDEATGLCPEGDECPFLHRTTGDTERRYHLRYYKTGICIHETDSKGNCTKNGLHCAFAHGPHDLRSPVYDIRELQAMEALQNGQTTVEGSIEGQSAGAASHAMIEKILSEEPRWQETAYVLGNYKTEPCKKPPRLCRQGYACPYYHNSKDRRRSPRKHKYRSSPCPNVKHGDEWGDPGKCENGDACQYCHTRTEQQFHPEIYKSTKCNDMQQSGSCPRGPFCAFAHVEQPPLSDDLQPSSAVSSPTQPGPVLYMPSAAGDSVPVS
Technique: RNA Bind-n-Seq
Molecule type: RNA
Medium: in vitro
Concentration: not given
Notes: RNA with constant flanks, human-mouse chimeric sites, ends assumed
Relative to: input RNA pool
Reading: higher = stronger binding
Constant ends, left off below: GGGAGUUCUACAGUCCGACGAUC … CAACAGAGGAUUGAGCAUCA
Strand	bound/input enrichment [ratio]
UCUUUAAAAAAAAAAUUACCUUUUCUGACAGUGCUUUCCCUCCCAUAGAUCCACGUUCAAGCUCAAAGAGCAAAGGCUUUGCACGGAUCUGAUGAUGCUGAUGAAGAAAGAUUUCUGAGA	0.43
ACCAUUUCUGAAUACACGGCUUUGUGUGUAGUUCACUUACGGUAUUAAAUUAUUAUUCUGCUUAGCUUAUAAUAAGGAUAAUUGCAUUUAAAGAGGUUACUGAAUGUUGUUAUUGUUCUU	1.03
GAUGAUAAUCACACAAACAAGUCACUGUUACAUGACCAGCCUUGGGAUUCUUCUCCUGAUUAAUAUUCUCCCUGGAACCACUGGUCAAGGGGAAUCAAGACGACAAGAACCUGGGGACUU	0.136
CGGAGCCCUCCUCUCCCACAGGCCCAAGAUAUAACCCACCAGUGCCUUCUGUCUGCUUGUCAGCUCUAAUCAAUCAUCCUGUCCUCUCACGCCCACACCAAGUGCCCAAAGUGGGGAGGG	0.432
CACGUGUCUGCAGUGCUUGAUGUGGACUACUCUCCCACUGGGAAGGAAUUUGUGUCUGCCAGCUUUGAUAAGUCUAUUAGAAUCUUUCCUGUGGACAAGAGCCGAAGCAGGGAGGUAUAU	0.515

Further values, each from its own experiment
Substance	target	test	system	conditions	scale	endpoint	value
PhoQ, residues 284 288 289 292 302 303 NLSRDF	PhoP, residues 12 14 15 18 19 NHFIF (Escherichia coli, UniProt P23836)	Sort-seq, measured: YFP reporter	E. coli	PhoQ-PhoP variant library, added: 10 µM Mg2+	relative to: high Mg2+ state, higher = stronger signaling	fold induction	3.62
